Experimental data gathered from unrelated publications.
Protocols differ between the studies behind these lines. “And” joins repeats or separate records; there may be more than shown. ± gives the spread as reported.

The tumour volume of `COc1cc(N2CCN(C(=O)C3CCCN3)CC2)ccc1Nc1ncc(Cl)c(Nc2ccccc2P(C)(C)=O)n1` (stereo not shown) is reported as 37.6 mm3 and 42.5 mm3 and 71.8 mm3 and 43.9 mm3 and 32 mm3 (nude mice, NCI-H3122 xenograft; intraperitoneal, 10 mg/kg every other day, day 1).
`CC(=O)[O-].O.O.[O-]c1ccc(Br)cc1C=NCCN1CCOCC1.[Zn+2]` gave an inhibition of 45.9% (hydroxyl radical scavenging; 200 µM).
With `COc1ccc(NC(=O)c2ccc3[nH]c(-c4ccc(N(C)C)cc4)nc3c2)cn1` the tumour volume was 150 mm3 and 306 mm3 and 131 mm3 and 352 mm3 (Lewis lung carcinoma, mice, syngeneic graft, subcutaneous; intraperitoneal, 25 mg/kg daily, day 3).
Under “plasma total cholesterol reduction”, `COc1ccc2cc3[n+](cc2c1OCCCOC(=O)c1cscn1)CCc1cc2c(cc1-3)OCO2` is recorded as 79.2% (hyperlipidemic hamster; oral gavage, 24 mg/kg daily, 3 weeks).
`CN1CCC[C@]1(C)/C=C/S(=O)(=O)NC(=O)Nc1c2c(cc3c1CCC3)CCC2` gave an IL-1β inhibition of 94.7% (human, whole blood ex vivo; 100 mg twice daily, day 14, 24 h, multiple ascending dose, together with: LPS and ATP).
With `COc1ccc(C(=O)CCc2cc(C(CCc3ccc(O)cc3OC)c3ccc(O)cc3)c(O)cc2OC)cc1` (racemic) the PGD2 level was 4 ± 4 pg/mL (human blood; 30 µM, together with: A23187).
For `COc1cnc2cccc(N3CCc4c(cc(Cn5ccnc5)cc4-c4cn(C)nc4C(F)(F)F)C3=O)c2c1`, the tumour volume was 109 mm3 and 149 mm3 and 148 mm3 and 166 mm3 and 171 mm3 (BALB/c nude mice, MV4-11 xenograft; intraperitoneal, 100 mg/kg, day 10).
With `COc1cc(O)ccc1CCC(c1ccc(O)cc1)c1cc2c(c(C)c1O)OC(c1ccc(O)cc1)CC2` (mixture of isomers) the amount was 560 ± 366 pg/mL blood (item: LTB4; human whole blood; 30 µM, together with: Escherichia coli).
`O=S(=O)(NCc1ccncc1)c1ccc(C2CCCCC2)cc1` — result for “downregulated genes number”: 746 genes (bulk RNA sequencing; CK-p25 mice, female, microglia; intraperitoneal, 0.3 mg/kg daily for 2 weeks, 336 h).
`COC1CN([C@H]2CC[C@H]([C@@]3(C)Oc4c(Cl)cc(C(=O)NCc5c(SC)cc(C)[nH]c5=O)c(C)c4O3)CC2)C1` — result for “log2 fold change”: 4.09 (RNA-seq, item: MAPRE3 mouse homolog; mouse, HT-1376 xenograft, whole blood; dose not given; baseline: vehicle).
